Measured values from different studies.
Parts stem from different laboratories: compare values within a part only. Changes are numbered by the printed parent chain.

Block 1
Target: CCNA1, cyclin fold, Cln2 fusion (human)
Technique: yeast growth competition, sequencing
Matrix: yeast
Notes: weak parent motif
Baseline: not given
Reading: higher = stronger binding
Measurement: normalised enrichment score
Parent: E2F1 docking peptide (human); PPVKRRLDLETDH; partner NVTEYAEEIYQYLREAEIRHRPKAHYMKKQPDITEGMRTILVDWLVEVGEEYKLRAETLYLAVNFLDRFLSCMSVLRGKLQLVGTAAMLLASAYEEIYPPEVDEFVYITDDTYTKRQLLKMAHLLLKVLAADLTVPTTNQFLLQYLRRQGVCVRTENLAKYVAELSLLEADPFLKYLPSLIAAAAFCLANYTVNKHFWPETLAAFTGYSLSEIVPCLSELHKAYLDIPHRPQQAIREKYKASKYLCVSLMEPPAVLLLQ
P1M: 0.696
T11N: 0.136
E10Y: 0.331
K4E: 0.305
H13Q: 0.627
L7K: 0.124
R6D: -0.0231
R5D: 0.607
D8C: 0.215
L7Y: 0.24
L7E: 0.127
R5I: 0.245
E10K: 0.117
E10V: 0.339
E10A: 0.715
D12W: 0.267
H13S: 0.594
T11G: 0.215

Block 2
Target: RING finger protein unkempt homolog, zinc fingers 1-6, SBP tag (UNK, Homo sapiens, UniProt Q9C0B0, residues 30-357)
UniProt Q9C0B0, sequence (30-357, looked up): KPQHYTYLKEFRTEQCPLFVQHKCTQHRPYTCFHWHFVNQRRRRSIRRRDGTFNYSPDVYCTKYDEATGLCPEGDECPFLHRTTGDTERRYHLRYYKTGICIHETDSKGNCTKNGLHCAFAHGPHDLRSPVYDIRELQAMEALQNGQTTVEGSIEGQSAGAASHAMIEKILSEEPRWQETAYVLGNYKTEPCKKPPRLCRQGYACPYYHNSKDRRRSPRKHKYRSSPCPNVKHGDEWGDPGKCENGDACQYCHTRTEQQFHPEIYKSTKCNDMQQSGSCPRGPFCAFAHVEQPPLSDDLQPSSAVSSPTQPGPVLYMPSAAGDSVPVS
Technique: RNA Bind-n-Seq
Form: RNA
Matrix: in vitro
Tested at: 100 nM
Notes: RNA with constant flanks, vertebrate orthologous sites, ends assumed
Baseline: input RNA pool
Reading: higher = stronger binding
Measurement: bound/input enrichment
All sequences stand within: GGGAGUUCUACAGUCCGACGAUC … CAACAGAGGAUUGAGCAUCA
CUCCCCCUUACCCCUAAAGUAGAACUUUUUAAAAUUAUGUCACCACCACUUGUAAAAAUUUAGCAAUAUUCGAAGAAAAUGCUCAUGAAGUAAGAAAUUCUGCUCAUGGUUUUGCAAAGC: 1.07 ratio
UGCAGGAAUGGCCCCCAUCCCACCUGUUUAUUCUGUAAACUACAGCCUGUAAAUAACAUUUAGCAUUCCUAUUGUAACAAAAUUAAUUUUUAUGAAAUAAAUUAUAUUUCCUAGUCUAAU: 1.19 ratio
AGAUUUAUUUCAUGCCCUGGACUCCCUACCGCACUGAUACUUUAAUAGAGUAUGCCUCUAUAGAAGACUUCCAAAACAGUCGCCAAACAACGACAUACAAACUUCCAAACCGCGUAGAUG: 0.649 ratio
GUGUUGGUGCGGAGUUCUCUGUGCCAGUGCUCAUCACCCCUUCUUCAUACCAACUGUCCCUAGUUAUAGGAAUUUAAUAUUUUUAAAAGUUUUACAUUGCUGUAUAUUCAAAGAUUUGUU: 0.597 ratio
UCAUACUGUACGUAGAGAAUCCUUGCCAUUGGUUUCCAUUGUGAGAAUUUCUAGAAUUUAUUUAGAAUUCAGUUUUCUAAUUCAGGCUCAAUGUGUUAGUCAUGUUUAGCUCAUAAUUAA: 0.277 ratio
GGAGGUUUGCUUCCUCCAACUUCAGUUUUUCAGGUUGUAGCUGGUUUUUUUCUUCUCCGCCCCCCACCGCAGUUCUUUCACUUUCGUUUCUGUUUCCCCAACUUCAAAUACACAAAUCCU: 0.809 ratio
GCAAUACCUGUGCAAAUUUCUCAACACUGAAUGAAGAGUAGUAAUUUUCAUAGUCACAGUUAGGUAGCUUUAGGGCAAUAUUGCCGAGUUUUGAAAAUGUACAAUAUGUAUAAUUUAAAA: 1.29 ratio
AAAAUUCAAUAGAAUUACACUAAUACUGAAGUUCCAGUUGAAAGGAUAUCCAAGUGUGUGUUGGUAGUUACUAAAAGAAUUAUAGCUGUUAUUGCCUUGUAUUUAUAUCCCUUGUUUCAG: 0.816 ratio

Block 3
Target: PABPC1L2, full length, GST fusion (mouse, UniProt A0ABA7IW68)
Technique: RNAcompete
Form: RNA
Matrix: in vitro
Tested at: 20 nM
Notes: 7-mer, probes averaged, single round
Baseline: mean of 7-mers
Reading: higher = stronger binding
Measurement: 7-mer Z-score
Residues (chain): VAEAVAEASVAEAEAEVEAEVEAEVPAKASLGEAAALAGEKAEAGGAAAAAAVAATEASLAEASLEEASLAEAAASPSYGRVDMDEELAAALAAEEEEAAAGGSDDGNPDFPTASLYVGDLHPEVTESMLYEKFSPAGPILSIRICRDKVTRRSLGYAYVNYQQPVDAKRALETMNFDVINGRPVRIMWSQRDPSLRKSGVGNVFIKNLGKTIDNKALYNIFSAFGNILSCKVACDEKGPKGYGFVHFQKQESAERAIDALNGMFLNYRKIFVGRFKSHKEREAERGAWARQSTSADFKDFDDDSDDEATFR
AAAGGGG: 1.62
AUUGCGC: -0.021
GUUGUUA: -0.246
GGCCCGG: -0.173
UGGAGGG: 0.218
AAGUGUU: 0.0406
AUCGCUG: -0.0971
UUUGACA: -0.211
ACUCCGC: -0.106
AAAUACU: 1.37
UACAAAA: 4.71
AACCUUU: -0.15
UCGAUUC: -0.298
GCACAUG: -0.206
CAAACCA: 0.0895
ACCAACG: 0.00979
CCUGGGU: -0.0391
AUAAGCC: -0.262
GUUUGCC: -0.516
CUUGUUG: -0.481
CUCCCCU: -0.306
GGGCAAG: 0.323
GUGGUCU: -0.449

Single results of other studies
PhoQ, residues 284 288 289 292 302 303 SASVAL
fold induction (PhoP, residues 12 14 15 18 19 NHTVL (Escherichia coli, UniProt P23836); Sort-seq, item: YFP reporter; E. coli; PhoQ-PhoP variant library, together with: 10 µM Mg2+; baseline: high Mg2+ state, higher = stronger signaling): 0.823
